Assay results of several laboratories.
Compare with care: the assays were run in different laboratories. ± gives the spread as reported.

For `CN(Cc1ccc(F)cc1)Cc1cc(=O)oc2cc(O)ccc12`, “remaining intact compound” read greater than 99% (human serum; 0.5 mM, 15 min).
With `CC[C@H](C)[C@@H]1NC(=O)[C@H](Cc2ccccc2)NC(=O)[C@@H](NC(=O)[C@H](CCCNC(=N)N)NC(=O)[C@H](Cc2ccccc2)NC(=O)[C@H](Cc2ccccc2)NC(=O)[C@H](CCCCN)NC(=O)[C@H](CO)NC(=O)[C@H](CC(C)C)NC(=O)[C@H](CCCNC(=N)N)NC(=O)[C@H](CCSC)NC(=O)[C@H](C)N)CCCCNC(=O)NCC[C@@H](C(=O)N[C@@H](CCCNC(=N)N)C(=O)N[C@@H](CCCCN)C(=O)N[C@@H](CCCCN)C(=O)O)NC(=O)[C@H](CC(C)C)NC1=O` the helicity was 10.6% (circular dichroism; 20% TFE in PBS; 200 µM, pH 7.4, 25 °C).
`CCCCCCCCCCCCCCCC(=O)N[C@@H](CCCCN)C(=O)N[C@@H](CCCCN)C(=O)N[C@@H](CO)C(=O)N[C@@H](CCCNC(=N)N)C(=O)N[C@@H](C)C(=O)N[C@@H](CC(C)C)C(=O)N[C@@H](Cc1ccccc1)C(N)=O` gave a prothrombin time of 11 ± 0.3 s (cynomolgus monkey, female; 10 mg/kg, day 1).
`N=C(N)NCCC[C@@H]1NC(=O)[C@H](Cc2c[nH]c3ccccc23)NC(=O)[C@@H](CC2CCCCC2)NC(=O)[C@@H]2CCCN2C(=O)[C@@H](NC(=O)CCc2ccccc2)CCCNC1=O` has a Cmax of 77 ng/g (C57BL/6J mice, brain; intravenous, 1 mg/kg).
`NC(=O)c1ccc(C(=O)NOCc2ccc(Sc3cccc(Cl)c3)c(C(F)(F)F)c2)cc1` has an oral bioavailability of 10.6% (male ICR mouse, plasma; oral, 60 mg/kg).
`C[C@H]1NSc2nc(=O)c3[nH]ccc3n2Cc2ccc(Cl)cc21`: exposure ratio “not detected” (dog, both sexes, plasma; 100 mg/kg; reference: dog over human 5 mg).
`NS(=O)(=O)c1ccc(-n2cc(CNc3ccc(F)cc3)c(-c3ccc(OCc4ccccc4)cc3)n2)cc1` — result for “ulcer severity index”: 0.85 ± 0.36 (rat, gastric mucosa; oral, 60 mg/kg, 17 h; reference: control score subtracted).
The fraction unbound of `[11CH3]Oc1ccc(Cc2ccncc2)nc1-c1cccc(Cl)c1` is reported as 1.6% (ultrafiltration; monkey, plasma).
`N#CC1=C(N)n2c(nnc2-c2ccccc2)NC1c1ccc(Br)cc1` (stereo not drawn) gave a ulcer number of 0.3 ± 0.01 (rat male, stomach; oral, 10 mg/kg, 4 h).
`COc1cc(F)c(C(C)C)cc1C1=C(CN2C(=O)O[C@H](c3cc(C(F)(F)F)cc(C(F)(F)F)c3)[C@@H]2C)CC(C)(C)CC1`: “Vd/F per body weight” 82.6 L/kg (non-compartmental analysis; healthy male subjects, plasma; oral, 200 mg single dose).
With `CNC(=N)NC(=N)NCCCCCCNC(=N)NC(=N)NC` the efflux ratio was 0.6 (Caco-2; 5 µM, 2 h).
For `[11CH3]c1ccc2nc(C3CCC3)n(-c3ccc4[nH]ncc4c3)c2n1`, the absorbed dose was 2.7 µSv/MBq (extrapolated from mouse; standard human, Urinary bladder wall).
`NS(=O)(=O)c1ccc(N2N=C(C(F)(F)F)CC2c2ccc(F)cc2F)cc1` (stereo not drawn) has a Tlast of 192 h (Beagle dog, both sexes, plasma; oral, 4 mg/kg, single dose, median).
`CCc1c2c(nc3ccc(O)cc13)-c1cc3c(c(=O)n1C2)COC(=O)[C@]3(O)CC` gave a Cmax of 6 ng/mL (human patients, plasma; intravenous, 3 mg/m^2 of parent drug).
`COC(=O)C(c1ccccc1Cl)N1CCC2SC(=O)C=C2C1` (stereo not drawn): “stock solution stability time” no less than 2 months (acetonitrile; -20 °C).
The helicity of `CC[C@H](C)[C@H](NC(=O)[C@H](Cc1ccccc1)NC(=O)[C@H](CC(=O)O)NC(=O)[C@@H]1CCNC(=O)NCCCC[C@H](NC(=O)[C@H](CC(C)C)NC(=O)[C@H](CCCNC(=N)N)NC(=O)[C@H](CCSC)NC(=O)[C@H](C)N)C(=O)N[C@@H](CCCCN)C(=O)N[C@@H](Cc2ccccc2)C(=O)N[C@@H](Cc2ccccc2)C(=O)N1)C(=O)N[C@@H](CC(C)C)C(=O)N[C@@H](CCC(N)=O)C(=O)N[C@@H](CCCNC(=N)N)C(=O)N[C@@H](CCCCN)C(=O)N[C@@H](CCCCN)C(=O)O` is reported as 24.4% (circular dichroism; 20% TFE in PBS; 200 µM, pH 7.4, 25 °C).
`Cn1c(=O)oc2ccc(-c3ccc(CC(C#N)NC(=O)C4CNCCCO4)c(F)c3)cc21` (stereo not drawn) — result for “subjects with TEAE”: 16.7% (measured: macule; human; 80 mg single dose, fasted).
`O=C([O-])CN1CCN(CC(=O)[O-])CCN(CC(=O)NCCc2ccc3c(c2)C2C=CCC2C(c2cc4c(cc2Br)OCO4)N3)CCN(CC(=O)[O-])CC1.[111In+3]` (stereo not drawn) has a tissue uptake of 2.5 ± 0.44 %ID/g (mouse, Hec50 endometrial tumour, lungs; 1 h post injection).
`CC(C)(Sc1ccncc1-c1ccc(C#N)c2ccccc12)C(=O)OC1OC(C(=O)O)C(O)C(O)C1O` (stereo not drawn) gave an AUC(0-inf) of 233 ng·h/mL (plasma; oral, 15 mg, normal renal function, fasted).
The cGAMP concentration of `Cn1ccc(-c2cc(Cl)c(Cl)c3[nH]c4c(c23)CN(C(=O)CO)CC4)n1` is reported as 11.9 µM (male C57BL/6 cGAS I309T mice, concanavalin A, spleen; oral, 100 mg/kg, 16 h after concanavalin A).
`CC(C)c1cnc(-c2cc(Cl)ccc2F)cc1Nc1ccncc1C(=O)NC(CO)CO` — result for “patients with decreased appetite”: 0% (patients, phase I monotherapy; oral, dose not given, grade 4).
With `[2H]C([2H])([2H])NC(=O)c1ccc(N2C(=S)N(c3ccc(C#N)c(C(F)(F)F)c3)C(=O)C2(C)C)cc1F` the CL/F was 215 mL/h (human, plasma; oral, 160 mg, single dose, fasted).
For `O=c1c(/C=N/NC(=S)N/N=C/c2cc(Cl)ccc2O)coc2ccccc12`, “peak potential separation” read 0.155 mV (cyclic voltammetry; anhydrous DMF; Cu2+ complex, glassy carbon electrode).
With `Cc1ccc2oc(-c3c4c(N)n[nH]c(=O)c4nn3-c3ccc(NC(=O)/C=C/CN(C)C)cc3)c(C)c2c1` the MRT was 1.36 h (mouse, plasma; intravenous, 1 mg/kg).
`C[Si](C)(C)C[C@@H](CN)CC(=O)O` gave a concentration of 1400 nM (male Sprague-Dawley rat, brain; oral, 30 mg/kg, 1 h, single dose).
`O=C([O-])CN1CCN(CC(=O)[O-])CCN(CC(=O)NCC2CCC(C(=O)NC(Cc3ccc4ccccc4c3)C(=O)NCCCCC(NC(=O)NC(CCC(=O)O)C(=O)O)C(=O)O)CC2)CCN(CC(=O)[O-])CC1.[44Sc+3]` (stereo not drawn): “organ absorbed dose” 0.456 mSv/MBq (PET/CT dosimetry, OLINDA/EXM; human, kidneys).
With `C[C@]12C[C@H](c3ccc(S(C)(=O)=O)cc3)C3=C4CCC(=O)C=C4CC[C@H]3[C@@H]1CC[C@@]2(O)C(F)(F)C(F)(F)F` the AUC(ss) was 126 ng·h/mL (rabbit; oral, 1 mg/kg, 0 to 24 h, efficacious exposure, steady state).

A few entries again:
`NS(=O)(=O)c1ccc(N2N=C(C(F)(F)F)CC2c2ccc(F)cc2F)cc1` (stereo not drawn) has a Tlast of 192 h (Beagle dog, both sexes, plasma; oral, 4 mg/kg, single dose, median).
`CCc1c2c(nc3ccc(O)cc13)-c1cc3c(c(=O)n1C2)COC(=O)[C@]3(O)CC` gave a Cmax of 6 ng/mL (human patients, plasma; intravenous, 3 mg/m^2 of parent drug).
`COC(=O)C(c1ccccc1Cl)N1CCC2SC(=O)C=C2C1` (stereo not drawn): “stock solution stability time” no less than 2 months (acetonitrile; -20 °C).
The helicity of `CC[C@H](C)[C@H](NC(=O)[C@H](Cc1ccccc1)NC(=O)[C@H](CC(=O)O)NC(=O)[C@@H]1CCNC(=O)NCCCC[C@H](NC(=O)[C@H](CC(C)C)NC(=O)[C@H](CCCNC(=N)N)NC(=O)[C@H](CCSC)NC(=O)[C@H](C)N)C(=O)N[C@@H](CCCCN)C(=O)N[C@@H](Cc2ccccc2)C(=O)N[C@@H](Cc2ccccc2)C(=O)N1)C(=O)N[C@@H](CC(C)C)C(=O)N[C@@H](CCC(N)=O)C(=O)N[C@@H](CCCNC(=N)N)C(=O)N[C@@H](CCCCN)C(=O)N[C@@H](CCCCN)C(=O)O` is reported as 24.4% (circular dichroism; 20% TFE in PBS; 200 µM, pH 7.4, 25 °C).
